Measured values from different studies.
Numbers after ± are the reported error.

N=C(N)NCCC[C@@H]1NC(=O)[C@H](CCCCNC(=O)CCOCCOCCOCCOCCNC(=O)CC[C@H](NC(=O)CCOCCOCCOCCOCCNC(=O)CC[C@H](NC(=O)CN2CCN(CC(=O)O)CCN(CC(=O)O)CCN(CC(=O)O)CC2)C(=O)NCCOCCOCCOCCOCCC(=O)N[C@@H](CCC(=O)NCCOCCOCCOCCOCCC(=O)NCCCC[C@@H]2NC(=O)[C@@H](Cc3ccccc3)NC(=O)[C@H](CC(=O)O)NC(=O)CNC(=O)[C@H](CCCNC(=N)N)NC2=O)C(=O)NCCOCCOCCOCCOCCC(=O)NCCCC[C@@H]2NC(=O)[C@@H](Cc3ccccc3)NC(=O)[C@H](CC(=O)O)NC(=O)CNC(=O)[C@H](CCCNC(=N)N)NC2=O)C(=O)NCCOCCOCCOCCOCCC(=O)NCCCC[C@@H]2NC(=O)[C@@H](Cc3ccccc3)NC(=O)[C@H](CC(=O)O)NC(=O)CNC(=O)[C@H](CCCNC(=N)N)NC2=O)NC(=O)[C@@H](Cc2ccccc2)NC(=O)[C@H](CC(=O)O)NC(=O)CNC1=O [indium-111 labelled]
tissue uptake (athymic nude mice, female, U-87 MG glioma xenograft, bone; intravenous, 3 µCi, 72 h): 0.66 ± 0.01 %ID/g

CCCC[C@H](NC(=O)CNC(=O)[C@H](CO)NC(=O)CNC(=O)c1ccc(NN)nc1)C(=O)N[C@H]1CC(=O)NCCCC[C@@H](C(N)=O)NC(=O)[C@H](Cc2c[nH]c3ccccc23)NC(=O)[C@H](CCCNC(=N)N)NC(=O)[C@@H](Cc2ccccc2)NC(=O)[C@H](Cc2c[nH]cn2)NC1=O [technetium-99m labelled]
uptake (C57 mouse, B16/F1 melanoma, liver; intravenous, 2 h): 0.23 ± 0.01 %ID/g

CCCC[C@H](NC(=O)CNC(=O)CNC(=O)c1ccc(NN)nc1)C(=O)N[C@H]1CC(=O)NCCCC[C@@H](C(N)=O)NC(=O)[C@H](Cc2c[nH]c3ccccc23)NC(=O)[C@H](CCCNC(=N)N)NC(=O)[C@@H](Cc2ccccc2)NC(=O)[C@H](Cc2c[nH]cn2)NC1=O [technetium-99m labelled]
uptake (C57 mouse, B16/F1 melanoma, heart; 2 h, together with: L-lysine 12 mg): 0.1 ± 0.05 %ID/g

CSCC[C@H](NC(=O)[C@H](CC(C)C)NC(=O)[C@H](Cc1c[nH]cn1)NC(=O)CNC(=O)[C@@H](NC(=O)[C@H](C)NC(=O)[C@H](Cc1c[nH]c2ccccc12)NC(=O)[C@H](CCC(N)=O)NC(=O)CCCCCNC(=O)CNC(=O)CNC(=O)CNC(=O)CSC(C)=O)C(C)C)C(N)=O [technetium-99m labelled]
tissue uptake (Swiss mouse, blood; intravenous, 18.5 MBq, 90 min): 0.12 ± 0.03 %ID/g

CCCC[C@H](NC(=O)CCCCCCCNC(=O)c1ccc(NN)nc1)C(=O)N[C@H]1CC(=O)NCCCC[C@@H](C(N)=O)NC(=O)[C@H](Cc2c[nH]c3ccccc23)NC(=O)[C@H](CCCNC(=N)N)NC(=O)[C@@H](Cc2ccccc2)NC(=O)[C@H](Cc2c[nH]cn2)NC1=O [technetium-99m labelled]
tissue uptake (C57 mouse, B16/F1 melanoma, heart; 2 h, together with: L-lysine 12 mg co-injected): 0.14 ± 0.01 %ID/g

COc1cc(OC)cc(C2=C3c4ccccc4C(c4ccc(NC(=S)S[C@@H]5O[C@H](CO)[C@@H](O)[C@H](O)[C@H]5O)cc4)=[N+]3[B-](F)(F)n3c2c2ccccc2c3-c2ccc(NC(=S)NCCOCCOCCOCCC(=O)N[C@@H](CC(C)C)C(=O)N[C@@H](C)C(=O)N[C@@H](CCCNC(=N)N)C(=O)N[C@@H](CC(C)C)C(=O)N[C@@H](CC(C)C)C(=O)N[C@H](C(N)=O)[C@@H](C)O)cc2)c1
absorption maximum (DMSO): 657 nm

N=C(N)NCCC[C@@H]1NC(=O)[C@H](CCCCNC(=O)CC[C@H](NC(=O)CCOCCOCCOCCOCCNC(=O)CC[C@H](NC(=O)CN2CCN(CC(=O)O)CCN(CC(=O)O)CCN(CC(=O)O)CC2)C(=O)NCCOCCOCCOCCOCCC(=O)N[C@@H](CCC(=O)NCCCC[C@@H]2NC(=O)[C@@H](Cc3ccccc3)NC(=O)[C@H](CC(=O)O)NC(=O)CNC(=O)[C@H](CCCNC(=N)N)NC2=O)C(=O)NCCCC[C@@H]2NC(=O)[C@@H](Cc3ccccc3)NC(=O)[C@H](CC(=O)O)NC(=O)CNC(=O)[C@H](CCCNC(=N)N)NC2=O)C(=O)NCCCC[C@@H]2NC(=O)[C@@H](Cc3ccccc3)NC(=O)[C@H](CC(=O)O)NC(=O)CNC(=O)[C@H](CCCNC(=N)N)NC2=O)NC(=O)[C@@H](Cc2ccccc2)NC(=O)[C@H](CC(=O)O)NC(=O)CNC1=O [indium-111 labelled]
tissue uptake (female athymic nude mice, muscle; intravenous, 3 µCi, 4 h, U-87 MG glioma xenograft): 0.72 ± 0.23 %ID/g

CC(C)C[C@H](NC(=O)[C@@H]1CCCN1C(=O)[C@H](CCCCN)NC(=O)[C@@H](N)CO)C(=O)N1CCC[C@H]1C(=O)N[C@@H](CCC(=O)O)C(=O)N[C@H](C(=O)N[C@H](C(=O)N[C@@H](CC(=O)O)C(=O)N[C@@H](CCC(=O)O)C(=O)N[C@@H](Cc1ccc(O)cc1)C(=O)N[C@@H](Cc1cn(CCOCCOCCOCCNC(=O)CCc2ccc(O)c(CN(CCN(CC(=O)O)Cc3cc(CCC(=O)NCCCC[C@H](NC(=O)N[C@@H](CCC(=O)O)C(=O)O)C(=O)O)ccc3O)CC(=O)O)c2)nn1)C(=O)O)[C@@H](C)O)C(C)C [gallium-68 labelled]
standardized uptake value (NMRI nu/nu mice, LNCaP tumour, brain; 135.34 nmol/kg, low molar activity): 0.01 g/g

CSCC[C@H](NC(=O)[C@H](CC(C)C)NC(=O)[C@H](Cc1c[nH]cn1)NC(=O)CNC(=O)[C@@H](NC(=O)[C@H](C)NC(=O)[C@H](Cc1c[nH]c2ccccc12)NC(=O)[C@H](CCC(N)=O)NC(=O)CCCCCNC(=O)CN1CCN(CC(=O)O)CCN(CC(=O)O)CC1)C(C)C)C(N)=O [gallium-68 labelled]
metabolite share (radio-HPLC; fetal bovine serum; 120 min, 37 °C): 10.8%

N=C(N)NCCC[C@@H]1NC(=O)[C@H](CCCCNC(=O)CCOCCOCCOCCOCCNC(=O)CN2CCN(CC(=O)O)CCN(CC(=O)O)CCN(CC(=O)O)CC2)NC(=O)[C@@H](Cc2ccccc2)NC(=O)[C@H](CC(=O)O)NC(=O)CNC1=O [indium-111 labelled]
tissue uptake (female athymic nude mice, brain; intravenous, 3 µCi, 72 h, U-87 MG glioma xenograft): 0.02 %ID/g
